Measured values of several laboratories.
Compare with care: the assays were run in different laboratories. ± gives the spread as reported.
Organism: Escherichia coli

Structure (SMILES) = CC[C@H](C)[C@H](NC(=O)CNC(=O)[C@H](CC(N)=O)NC(=O)[C@H](CCCNC(=N)N)NC(=O)[C@H](CS)NC(=O)[C@H](CCCNC(=N)N)NC(=O)CNC(=O)CNC(=O)[C@H](CCCCN)NC(=O)[C@H](Cc1ccc(O)cc1)NC(=O)[C@H](CCCNC(=N)N)NC(=O)[C@H](CCCCN)NC(=O)[C@@H](NC(=O)[C@H](CC(C)C)NC(=O)[C@H](CS)NC(=O)[C@H](Cc1c[nH]cn1)NC(=O)[C@H](C)NC(=O)[C@H](C)NC(=O)[C@H](CS)NC(=O)[C@H](C)NC(=O)[C@H](CO)NC(=O)[C@H](Cc1c[nH]cn1)NC(=O)[C@H](CC(N)=O)NC(=O)[C@H](CC(C)C)NC(=O)[C@H](CO)NC(=O)CNC(=O)[C@H](Cc1c[nH]c2ccccc12)NC(=O)[C@@H]1CCCN1C(=O)[C@@H](NC(=O)[C@H](CO)NC(=O)[C@H](C)NC(=O)[C@H](CO)NC(=O)[C@H](CC(C)C)NC(=O)[C@H](CC(C)C)NC(=O)[C@H](CC(=O)O)NC(=O)[C@H](CS)NC(=O)[C@@H](NC(=O)[C@H](C)N)[C@@H](C)O)[C@@H](C)O)[C@@H](C)O)C(=O)N[C@@H](CS)C(=O)N[C@@H](CCCNC(=N)N)C(=O)N[C@@H](CS)C(=O)N[C@@H](CCCNC(=N)N)C(=O)N[C@@H](CCCNC(=N)N)C(N)=O; system = DH5α; MIC = > 100 µg/mL
Structure (SMILES) = C#CCON=C1C(C)C(c2ccc(Cl)cc2)OC(c2ccc(Cl)cc2)C1C (centres unmarked); test = microbial growth, broth dilution; system = MTCC443; setting = 24 h; MIC = 12.5 µg/mL
Structure (SMILES) = CC[C@H](C)[C@H](NC(=O)[C@H](C)NC(=O)[C@@H](NC(=O)[C@H](CC(=O)O)NC(=O)[C@H](CCCCN)NC(=O)[C@H](CO)NC(=O)[C@@H](NC(=O)[C@H](CC(N)=O)NC(=O)[C@H](C)NC(=O)[C@@H](NC(=O)[C@H](CCC(=O)O)NC(=O)[C@H](CCCCN)NC(=O)[C@@H](NC(=O)[C@@H](NC(=O)[C@H](Cc1c[nH]cn1)NC(=O)[C@H](CCCCN)NC(=O)[C@@H](NC(=O)[C@H](CCCCN)NC(=O)[C@H](CCCCN)NC(=O)[C@@H](NC(=O)[C@H](CC(C)C)NC(=O)[C@H](CCCCN)NC(=O)[C@H](CC(N)=O)NC(=O)[C@H](Cc1ccccc1)NC(=O)[C@H](CCCNC(=N)N)NC(=O)[C@H](CCCCN)NC(=O)[C@H](CCCNC(=N)N)NC(=O)[C@H](Cc1ccccc1)NC(=O)CN)C(C)C)C(C)C)[C@@H](C)O)[C@@H](C)CC)[C@@H](C)O)C(C)C)C(C)C)C(=O)N[C@H](C(=O)N[C@@H](C)C(=O)NCC(=O)N[C@@H](CO)C(=O)NCC(=O)N[C@H](C(=O)N[C@@H](C)C(=O)N[C@H](C(=O)NCC(=O)N[C@@H](C)C(=O)N[C@@H](C)C(=O)N[C@@H](CCSC)C(N)=O)C(C)C)C(C)C)C(C)C; test = broth microdilution; system = ATCC 25922, CAMHB; MIC = 4 µg/mL
Structure (SMILES) = OB(O)c1cnn(-c2cccc(Cl)c2)c1; test = bacterial growth; system = CTX-M-14 ESBL clinical isolate; setting = cefotaxime alone; MIC = 32 µg/mL
Structure (SMILES) = CC[C@H](C)[C@H](NC(=O)[C@@H](CCCNC(=N)N)NC(=O)[C@H](CCCNC(=N)N)NC(=O)[C@@H]1CCCN1C(=O)[C@H](Cc1c[nH]c2ccccc12)NC(=O)[C@H](CCCNC(=N)N)NC(=O)[C@@H]1CCCN1C(=O)[C@H](CCCNC(=N)N)NC(=O)[C@@H]1CCCN1C(=O)[C@H](CC(C)C)NC(=O)[C@H](Cc1ccc(O)cc1)NC(=O)[C@@H]1CCCN1C(=O)[C@@H]1CCCN1C(=O)[C@H](CCCCN)NC(=O)[C@H](CC(=O)O)NC(=O)[C@@H](N)C(C)C)C(=O)N[C@@H](Cc1ccc(O)cc1)C(=O)N[C@@H](CC(N)=O)C(=O)N[C@H](CCCNC(=N)N)C(N)=O; test = broth microdilution; system = BW25113; setting = 18 h; MIC = 4 µg/mL
Structure (SMILES) = CCCCCCSCC1OC(OC2C(N)CC(N)C(OC3OC(CN)C(O)CC3N)C2O)C(O)C(N)C1O (centres unmarked); system = MC1061; MIC = 150 µg/mL
Structure (SMILES) = CC(C)C[C@@H]1NC(=O)[C@H](C)NC(=O)[C@H](NC(=O)[C@H](CO)NC(=O)[C@@H](CCCCN)NC(=O)[C@@H](CC(C)C)NC(=O)[C@H](C)N)[C@H](C(N)=O)OC(=O)[C@H](CC(C)C)NC1=O; system = ATCC 10798; setting = TFA salt; MIC = > 32 µg/mL
Structure (SMILES) = O=C(NCCNCCO)c1cn(Cc2ccccc2)c2cc(Cl)c(OCc3ccc(Cl)cc3)cc2c1=O; system = ATCC 25922; scale = ≥80% growth inhibition; MIC = < 0.25 µg/mL
Structure (SMILES) = CC(C)C[C@@H]1NC(=O)[C@@H](Cc2ccccc2)NC(=O)[C@H](CCN)NC(=O)[C@@H](NC(=O)[C@H](CN)NC(=O)[C@@H](NC(=O)CC(CN)Cc2ccccc2)[C@@H](C)O)CCNC(=O)[C@H]([C@@H](C)O)NC(=O)[C@H](CCN)NC(=O)[C@H](CCN)NC1=O (some centres unmarked); test = broth microdilution; system = IHMA 558090 reduced polymyxin B susceptibility, cation-adjusted Mueller-Hinton broth; MIC = 8 µg/mL
Structure (SMILES) = COc1c(NC(=O)c2ccc(NC(=O)c3ccc(NC(=O)[C@H](CC#N)NC(=O)c4ccc(NC(=O)/C(C)=C/c5ccc(O)cc5)cc4)cc3)c(OC)c2O)ccc(C(=O)O)c1O; system = WT-3; MIC = 0.06 µg/mL
Structure (SMILES) = CC(C)C[C@H](NC(=O)[C@H](Cc1ccc(O)cc1)NC(=O)[C@@H]1CCCN1C(=O)[C@H](CCCNC(=N)N)NC(=O)[C@@H]1CCCN1C(=O)[C@H](CCCCN)NC(=O)[C@H](CC(=O)O)NC(=O)[C@@H]1CCCN1C(=O)[C@H](CCCNC(=N)N)NC(=O)C1(N)CCCCC1)C(=O)N1CCC[C@H]1C(=O)N[C@@H](CCCNC(=N)N)C(=O)N1CCC[C@H]1C(=O)N[C@@H](CCCNC(=N)N)C(=O)N1CCC[C@H]1C(=O)N1CCC[C@H]1C(=O)N[C@@H](CCCNC(=N)N)C(=O)N1CCC[C@H]1C(=O)N[C@H](C(=O)N[C@@H](CCCNC(=N)N)C(=O)N[C@@H](CSCc1ccc(CSC[C@H](NC(=O)[C@H](CCCNC(=N)N)NC(=O)[C@@H](NC(=O)[C@@H]2CCCN2C(=O)[C@H](CCCNC(=N)N)NC(=O)[C@@H]2CCCN2C(=O)[C@@H]2CCCN2C(=O)[C@H](CCCNC(=N)N)NC(=O)[C@@H]2CCCN2C(=O)[C@H](CCCNC(=N)N)NC(=O)[C@@H]2CCCN2C(=O)[C@H](CC(C)C)NC(=O)[C@H](Cc2ccc(O)cc2)NC(=O)[C@@H]2CCCN2C(=O)[C@H](CCCNC(=N)N)NC(=O)[C@@H]2CCCN2C(=O)[C@H](CCCCN)NC(=O)[C@H](CC(=O)O)NC(=O)[C@@H]2CCCN2C(=O)[C@H](CCCNC(=N)N)NC(=O)C2(N)CCCCC2)C(C)C)C(=O)NN)cc1)C(=O)NN)C(C)C; test = bacterial growth; system = ATCC 25922, 100% Mueller-Hinton broth; setting = 90 min, 37 °C, strain ATCC 25922; MIC = 8.1 ± 0.4 µg/mL
Structure (SMILES) = CC(=O)OCc1cc(-c2nc3ccccc3n(-c3ccc([N+](=O)[O-])cc3[N+](=O)[O-])c2=O)nn1-c1ccccc1; test = microbial growth; system = MDR; MIC = 64.5 µg/mL
Structure (SMILES) = CCCCCCCCCCCCCCCCCCSCC1OC(OC2C(N)CC(N)C(OC3OC(CN)C(O)CC3N)C2O)C(O)C(N)C1O (centres unmarked); system = BL21(DE3) pET22b; MIC = > 150 µg/mL
Structure (SMILES) = CCCCCCCCCCCCCC(=O)N[C@@H](Cc1ccc2ccccc2c1)C(=O)N[C@@H](CCCCN)C(=O)N[C@@H](CCCCN)C(=O)N[C@@H](CCCCN)C(=O)N[C@@H](CCCCN)C(N)=O; test = broth microdilution; system = K12, water pH 7; setting = 18 h, 37 °C; MIC = 16 µg/mL
Structure (SMILES) = c1ccc(CCNC2CCCc3c2[nH]c2ccc(C4CCCCC4)cc32)cc1 (centres unmarked); test = broth microdilution; system = MB5746 hyperpermeable, efflux-deficient, cation-adjusted Mueller-Hinton broth; MIC = 2 µg/mL
Structure (SMILES) = CC[C@H](C)[C@H](NC(=O)[C@@H](Cc1ccccc1)NC)C(=O)N[C@@H](CO)C(=O)N[C@H](CCCNC(=N)N)C(=O)N[C@@H](C(=O)N[C@H](C(=O)OC[C@H](N)C(=O)N[C@H]1C(=O)N[C@@H](C)C(=O)N[C@@H](C2CCCCC2)C(=O)N[C@@H]([C@@H](C)CC)C(=O)O[C@H]1C)[C@@H](C)CC)[C@@H](C)CC; test = broth microdilution; system = ATCC 10798, Mueller-Hinton broth; setting = 16 h, 37 °C; MIC = > 8 µg/mL
Structure (SMILES) = c1cc2c(s1)CCOC21CCN(Cc2ccc3c(c2)OCCO3)CC1; test = broth microdilution; system = 3; MIC = > 64 µM
Structure (SMILES) = CCCCCCCCCCCCCCCC(=O)N[C@@H](CCCCN)C(=O)N[C@@H](CCCCN)C(=O)N[C@@H](CCCCN)C(=O)N[C@@H](CCCCN)C(=O)N[C@@H](Cc1c[nH]cn1)C(N)=O; test = broth microdilution; system = K12, water pH 7; setting = 18 h, 37 °C; MIC = 16 µg/mL
Structure (SMILES) = CC[C@H](C)[C@H](NC(=O)CNC(=O)[C@@H](NC(=O)[C@@H](N)Cc1ccccc1)[C@@H](C)CC)C(=O)N[C@@H](CCSC)C(=O)N[C@@H](C)C(=O)N[C@H](C(=O)N[C@@H](CC(C)C)C(=O)N[C@@H](C)C(=O)N[C@@H](CO)C(=O)N[C@@H](CC(C)C)C(=O)N[C@H](C(=O)N[C@H](C(=O)N1CCC[C@H]1C(=O)N[C@@H](CCCCN)C(=O)N[C@@H](CC(C)C)C(=O)N[C@H](C(=O)N[C@@H](CCC(=O)O)C(=O)N[C@@H](CCCCN)C(=O)N[C@H](C(=O)N[C@@H](CCCCN)C(=O)N[C@@H](CCC(N)=O)C(=O)N[C@@H](C)C(=O)N[C@@H](CCCNC(=N)N)C(N)=O)[C@@H](C)CC)[C@@H](C)CC)[C@@H](C)CC)C(C)C)[C@@H](C)O; system = ATCC 35218, MHC medium with bicarbonate; MIC = > 50 µM
Structure (SMILES) = CC[C@H](C)[C@H](NC(=O)[C@H](CCCNC(=N)N)NC(=O)[C@H](CCC(N)=O)NC(=O)[C@@H](NC(=O)[C@@H](NC(=O)[C@H](CCCNC(=N)N)NC(=O)[C@@H](N)CCCCN)[C@@H](C)CC)C(C)C)C(=O)N[C@@H](CCCCN)C(=O)N[C@@H](CC(=O)O)C(=O)N[C@@H](Cc1ccccc1)C(=O)N[C@@H](CC(C)C)C(=O)N[C@@H](CCCNC(=N)N)C(N)=O; test = broth microdilution; system = ATCC 25922; setting = 15 h, 37 °C; MIC = 40 µM
